Results of several laboratories.
Each line is one published result; not all experiments were run side by side. Numbers after ± are the reported error.
Target: Cannabinoid receptor 1 (CNR1, Homo sapiens, UniProt P21554)
UniProt P21554, sequence (whole entry, looked up): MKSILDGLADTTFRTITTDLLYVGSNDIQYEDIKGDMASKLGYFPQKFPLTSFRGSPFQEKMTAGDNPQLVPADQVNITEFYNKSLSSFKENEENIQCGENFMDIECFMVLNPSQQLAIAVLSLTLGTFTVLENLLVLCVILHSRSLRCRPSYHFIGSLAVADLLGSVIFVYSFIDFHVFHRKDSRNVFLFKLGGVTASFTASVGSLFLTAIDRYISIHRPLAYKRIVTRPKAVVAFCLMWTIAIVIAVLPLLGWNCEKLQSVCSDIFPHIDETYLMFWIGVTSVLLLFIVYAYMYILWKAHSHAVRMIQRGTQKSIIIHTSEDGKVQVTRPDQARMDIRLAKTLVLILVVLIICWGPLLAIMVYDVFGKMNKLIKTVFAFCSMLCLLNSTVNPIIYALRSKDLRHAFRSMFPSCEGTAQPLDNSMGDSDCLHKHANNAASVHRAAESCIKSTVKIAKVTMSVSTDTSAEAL

For `CC1=CCC2C(C1)c1c(O)cc(C(C)(C)C)cc1OC2(C)C` (stereo not drawn), the Ki was 7.3 nM (ligand displacement, radioligand; cell membranes).
`Cc1ccc(C(=O)c2cn(CCCCCCl)c3ccccc23)c2ccccc12` gave an EC50 of 231 ± 35.4 nM (GIRK channel fluorescence, agonist; AtT20 expressing CB1).
The EC50 of `C[C@@]1(Cc2ccccc2)COc2cc(C(=O)N3CCCCC3)ccc21` is reported as over 10000 nM (GTPγS binding, agonist; cell membranes).
The EC50 of `COC(=O)c1ccc2c(C(CC(F)(F)F)c3cccs3)c(-c3ccccc3)[nH]c2c1` (single isomer, unassigned; (-)) is reported as 113 ± 62 nM (positive allosteric modulator; added: EC20 CP 55940).
`CC1(C)C(C(=O)c2cn(CCCCCF)c3ccccc23)C1(C)C` gave an EC50 of 214 ± 14.9 nM (GIRK channel fluorescence, agonist; AtT20 expressing CB1).
`CCc1c(C(=O)NCCc2ccc(N3CCCCC3)cc2)[nH]c2ccc(N=C=S)cc12` has an IC50 of 774 nM (cAMP level, negative allosteric modulator; HEK293 CRE reporter; 4 h, added: anandamide 500 nM and forskolin 10 µM).
With `CCCCCc1ccc(-c2c(C)c(C(=O)NN3CCCCC3)nn2-c2ccc(Cl)cc2Cl)cc1` the Ki was 1.7 nM (ligand displacement, radioligand; cell membranes).
With `C=CCCCn1nc(C(=O)N[C@H](C(=O)OC)C(C)(C)C)c2ccccc21` the EC50 was 19.7 ± 2.9 nM (GIRK channel fluorescence, agonist; AtT20 expressing CB1).
With `CCc1c(C(=O)NCCc2ccc(N3CCCCC3)cc2)[nH]c2ccc(Cl)cc12` the IC50 was 882 nM (cAMP level, negative allosteric modulator; HEK293 CRE reporter; 4 h, added: anandamide 500 nM and forskolin 10 µM).
The EC50 of `CCCCCCCCCCCCC/C=C/CCC(=O)N[C@H](CO)COC` is reported as 11800 nM (cAMP, agonist).
For `O=C(NN1CCCCC1)c1nn(-c2ccc(Cl)cc2Cl)c2c1CCCc1cc(Cl)ccc1-2`, the Ki was 4.6 nM (ligand displacement, radioligand; cell membranes).
The Ki of `CCCCCCN1C(=O)/C(=N\NC(=O)c2ccccc2)c2ccccc21` is reported as 162 ± 7.6 nM.
`CCC(=C(c1ccc(OCCN2CCCC2)cc1)c1ccc(OCCN2CCCC2)cc1)c1ccccc1` gave a Ki of 732 nM (ligand displacement, radioligand; cell membranes).
For `COC(=O)[C@@H](NC(=O)c1nn(CCCCF)c2ccccc12)C(C)(C)C`, the EC50 was 4.97 ± 2.6 nM (GIRK channel fluorescence, agonist; AtT20 expressing CB1).
The EC50 of `CC1=CC[C@@H]2[C@@H](C1)c1c(O)cc(CC#CCCCNS(C)(=O)=O)cc1OC2(C)C` is reported as 40.4 nM (cAMP, agonist).
